Published values of several laboratories.
Each line is one published result; not all experiments were run side by side. “And” joins repeats or separate records; there may be more than shown. ± gives the spread as reported.

Structure (SMILES) | test | system | setting | scale | quantity | value
O=C1NC2(CC2)COc2ncc(F)cc2[C@H]2COCCN2c2ccn3ncc1c3n2 |  | Sprague-Dawley rat, male, serum | oral, 2.5 mg/kg/day, 4 weeks daily, end of recovery period |  | albumin | 38.9 ± 1.7 g/L
CC(C)Oc1c(NC(=O)c2ccc(NC(=O)[C@H](CC(N)=O)NC(=O)c3ccc(/N=N/c4ccccc4)cc3)cc2)ccc(C(=O)Nc2ccc(C(=O)O)cc2)c1O | absorbance kinetics |  | 50 °C, photostationary to ground state |  | thermal relaxation half-life | 2.1 h
COc1ccc(C([O-])=CC(=O)c2ccc(C(C)(C)C)cc2)cc1.Cc1ccc(C(C)C)cc1.[Cl-].[Ru+2] |  | zebrafish larvae | 10 µM, 96 h, dark | baseline: normal | viability | 100%
CN1Cc2cc(Cl)ccc2-n2c(nnc2C2CCN(c3cccc([18F])n3)CC2)C1 |  | C57BL/6 mouse male, stomach | intravenous, dose not given, 30 min, together with: blocking agent 10 mg/kg |  | tissue uptake | 14.7 ± 4.77 %ID/g
CC[C@H](C)[C@H](NC(=O)[C@H](CO)NC(=O)[C@H](CCCCN)NC(=O)[C@@H](NC(=O)[C@@H](NC(=O)[C@H](CC(=O)O)NC(=O)[C@H](CCC(=O)O)NC(=O)[C@@H](NC(=O)[C@H](CO)NC(=O)[C@@H](N)CCCNC(=N)N)[C@@H](C)O)[C@@H](C)CC)[C@@H](C)CC)C(=O)N[C@@H](CO)C(=O)NCC(=O)NCC(=O)NCC(=O)N[C@@H](Cc1ccccc1)C(=O)N[C@@H](CC(C)C)C(=O)N[C@@H](CC(N)=O)C(=O)N[C@@H](C)C(=O)N[C@@H](CCSC)C(=O)N[C@@H](CC(N)=O)C(=O)N[C@@H](C)C(N)=O |  | zebrafish embryos 28 hpf, E3 medium | 24 h |  | chronic toxic concentration | 25 µM
CCCCCCCCCCCCCCCC(=O)N[C@@H](CCC(=O)NCCCC[C@H](NC(=O)[C@H](CC(=O)O)NC(=O)[C@H](CO)NC(=O)[C@@H](NC(=O)[C@H](Cc1ccccc1)NC(=O)[C@@H](NC(=O)CNC(=O)[C@H](CCC(N)=O)NC(=O)[C@H](C)NC(=O)[C@@H](Cc1ccc(O)cc1)NC(C)=O)[C@@H](C)O)[C@@H](C)O)C(=O)N[C@@H](CO)C(=O)N[C@@H](CCCCN)C(=O)N[C@@H](Cc1ccc(O)cc1)C(=O)N[C@@H](CC(C)C)C(=O)N[C@@H](CC(=O)O)C(=O)N[C@@H](CCC(=O)O)C(=O)N[C@@H](CCCNC(=N)N)C(=O)N[C@@H](C)C(=O)N[C@@H](C)C(=O)N[C@@H](CCC(N)=O)C(=O)N[C@@H](CC(=O)O)C(=O)N[C@@H](Cc1ccccc1)C(=O)N[C@H](C(=O)N[C@@H](CCC(N)=O)C(=O)N[C@@H](Cc1c[nH]c2ccccc12)C(=O)N[C@@H](CC(C)C)C(=O)N[C@@H](CC(C)C)C(=O)N[C@@H](CCC(=O)O)C(=O)NCC(=O)NCC(=O)N1CCC[C@H]1C(=O)N[C@@H](CO)C(=O)N[C@@H](CO)C(=O)NCC(=O)N[C@@H](C)C(=O)N1CCC[C@H]1C(=O)N1CCC[C@H]1C(=O)N1CCC[C@H]1C(=O)N[C@@H](CO)C(N)=O)C(C)C)C(=O)O |  | cynomolgus monkey | subcutaneous, 0.0161 mg/kg |  | bioavailability | 114%
COc1ccc(CNc2ccc3c(c2)S(=O)(=O)C=C3)cc1 |  | male C57BL/6 mice, blood | intraperitoneal, 10 mg/kg, day 8, group average |  | red cell distribution width CV | 0.15%
CC[C@H](C)[C@H](NC(=O)[C@H](CCCCN)NC(=O)CNC(=O)[C@H](CC(C)C)NC(=O)[C@H](Cc1ccccc1)NC(=O)[C@H](CCCCN)NC(=O)[C@H](CO)NC(=O)[C@H](Cc1ccccc1)NC(=O)[C@H](Cc1c[nH]c2ccccc12)NC(=O)[C@H](CCC(N)=O)NC(=O)[C@@H](NC(=O)[C@H](Cc1ccccc1)NC(=O)CCCCCNC(=O)CN1CCN(CC(=O)O)CCN(CC(=O)O)CCN(CC(=O)O)CC1)C(C)C)C(=O)N[C@@H](CCC(=O)O)C(=O)N1CCC[C@H]1C(=O)N[C@@H](CC(=O)O)C(=O)N[C@H](C(=O)N[C@@H](CO)C(=O)N[C@@H](CCC(N)=O)C(=O)N[C@H](C(=O)N[C@@H](CCC(N)=O)C(=O)N[C@@H](CC(=O)O)C(=O)N1CCC[C@H]1C(=O)N[C@@H](CC(N)=O)C(=O)N[C@@H](CC(=O)O)C(=O)N[C@@H](CCC(N)=O)C(=O)N[C@@H](Cc1ccc(O)cc1)C(=O)N[C@@H](CCC(=O)O)C(=O)N1CCC[C@H]1C(=O)N[C@@H](Cc1ccccc1)C(=O)O)C(C)C)C(C)C [copper-64 labelled] | dynamic PET | mouse both sexes, CT26 tumour, checkpoint inhibitor-treated, tumour | intravenous, 100 µCi/mouse, 690 s |  | SUVmean | 3.88 SUV
N=C(N)NCCC[C@@H](NC(=O)[C@H](N)Cc1c[nH]c2ccccc12)C(=O)N[C@H](CCCCN)C(=O)N[C@H](Cc1c[nH]c2ccccc12)C(=O)N[C@H](CCCNC(=N)N)C(=O)N[C@H](CCCCN)C(=O)N[C@H](Cc1c[nH]c2ccccc12)C(=O)N[C@H](CCCNC(=N)N)C(=O)N[C@H](CCCCN)C(=O)N[C@H](Cc1c[nH]c2ccccc12)C(=O)N[C@H](CCCNC(=N)N)C(=O)N[C@H](CCCCN)C(N)=O |  | mouse | intraperitoneal, 40 mg/kg single dose, day 3 |  | survival | 75%
CSCC[C@H](NC(=O)CNC(=O)[C@H](CCCCN)NC(=O)[C@H](CC(C)C)NC(=O)[C@@H]1CCCN1C(=O)[C@H](CO)NC(=O)[C@H](Cc1c[nH]cn1)NC(=O)[C@H](Cc1c[nH]c2ccccc12)NC(=O)[C@H](CCCNC(=N)N)NC(=O)[C@H](CC(C)C)NC(=O)[C@H](CCCNC(=N)N)NC(=O)[C@H](Cc1c[nH]c2ccccc12)NC(=O)[C@H](CS)NC(=O)CCCCCNC(=O)CN1CCN(CC(=O)O)CCN(CC(=O)O)CCN(CC(=O)O)CC1)C(=O)O [copper-64 labelled] |  | C57BL/6J mice, B16-F10 tumour | intravenous, 1.85 MBq, 2 h | baseline: tumour over blood | tumour-to-blood ratio | 2.98
COc1cnc2cccc(N3CCc4c(cc(Cn5ccnc5)cc4-c4cn(C)nc4C(F)(F)F)C3=O)c2c1 |  | CD-1 mouse | intraperitoneal, 150 mg/kg once daily, day 2, dose-escalation tolerability | baseline: day 1 | body weight change | 2.7%
CCC1=C(C)C2=C(c3ccc(P(=NC4=[O+][Ru-]([Cl])[n+]5ccccc54)(c4ccccc4)c4ccccc4)cc3)c3c(C)c(CC)c(C)n3[B-](C)(C)[N+]2=C1C.Cc1ccc(C(C)C)cc1.[Cl-] | LC-MS shake flask | 1-octanol/PBS |  |  | logP | 2.2 ± 0.27
CC(C)=CCC/C(C)=C/CCn1cc(CC(C)(P(=O)(O)O)P(=O)(O)O)nn1 |  | mouse CD-1 | intravenous, 0.3 mg/kg, 24 h | baseline: dose | biliary excretion | 0.053%
COC(=O)[C@H]1[C@@H](c2ccc(Cl)c(Cl)c2)C[C@@H]2CC[C@H]1N2CCCCCc1ccc2cc3ccccc3cc2c1 | fluorometric titration |  | 1 µM, 10% DMSO |  | pKa | 6.5
CSCC[C@H](N)C(=O)N[C@@H](C)C(=O)N[C@@H](CCCNC(=N)N)C(=O)N[C@@H](CCCNC(=N)N)C(=O)N[C@@H](CC(=O)O)C(=O)N[C@@H](CCCCN)C(=O)N[C@H](C(=O)N[C@@H](CC(=O)O)C(=O)N[C@@H](Cc1ccccc1)C(=O)N[C@@H](C)C(=O)N[C@@H](CCCNC(=N)N)C(=O)N[C@@H](CCCNC(=N)N)C(=O)N[C@@H](CCCNC(=N)N)C(=O)N[C@@H](CCCNC(=N)N)C(=O)NCCCCCC(=O)NCCCCC(NC(=O)CCCCCNC(=O)[C@H](CCCNC(=N)N)NC(=O)[C@H](CCCNC(=N)N)NC(=O)[C@H](CCCNC(=N)N)NC(=O)[C@H](CCCNC(=N)N)NC(=O)[C@H](C)NC(=O)[C@H](Cc1ccccc1)NC(=O)[C@H](CC(=O)O)NC(=O)[C@@H](NC(=O)[C@H](CCCCN)NC(=O)[C@H](CC(=O)O)NC(=O)[C@H](CCCNC(=N)N)NC(=O)[C@H](CCCNC(=N)N)NC(=O)[C@H](C)NC(=O)[C@@H](N)CCSC)[C@@H](C)O)C(=O)NCCCCC(NC(=O)C(CCCCNC(=O)CCCCCNC(=O)[C@H](CCCNC(=N)N)NC(=O)[C@H](CCCNC(=N)N)NC(=O)[C@H](CCCNC(=N)N)NC(=O)[C@H](CCCNC(=N)N)NC(=O)[C@H](C)NC(=O)[C@H](Cc1ccccc1)NC(=O)[C@H](CC(=O)O)NC(=O)[C@@H](NC(=O)[C@H](CCCCN)NC(=O)[C@H](CC(=O)O)NC(=O)[C@H](CCCNC(=N)N)NC(=O)[C@H](CCCNC(=N)N)NC(=O)[C@H](C)NC(=O)[C@@H](N)CCSC)[C@@H](C)O)NC(=O)CCCCCNC(=O)[C@H](CCCNC(=N)N)NC(=O)[C@H](CCCNC(=N)N)NC(=O)[C@H](CCCNC(=N)N)NC(=O)[C@H](CCCNC(=N)N)NC(=O)[C@H](C)NC(=O)[C@H](Cc1ccccc1)NC(=O)[C@H](CC(=O)O)NC(=O)[C@@H](NC(=O)[C@H](CCCCN)NC(=O)[C@H](CC(=O)O)NC(=O)[C@H](CCCNC(=N)N)NC(=O)[C@H](CCCNC(=N)N)NC(=O)[C@H](C)NC(=O)[C@@H](N)CCSC)[C@@H](C)O)C(N)=O)[C@@H](C)O (some centres unmarked) |  | C57BL/6 mouse female, femur | dose not given, 6 h | baseline: total | tissue distribution | 1.55% and 1.19% and 0.71%
CC(=O)c1c(C)c2cnc(Nc3ccc(N4CCNCC4)cn3)nc2n(C2CCCC2)c1=O |  | C57BL/6 mice, blood | 25 mg/kg, P25, dosed P10 to P24 |  | ALT activity | 39.7 ± 4 U/liter
CC(C)[C@@H]1NC(=O)CNC(=O)[C@H](CC(N)=O)NC(=O)[C@H](CCCNC(=N)N)NC(=O)[C@H](Cc2ccc(O)cc2)NC(=O)[C@H](C(C)C)NC(=O)[C@@H](NC(=O)[C@@H](NC(=O)[C@H](CC(N)=O)NC(=O)[C@H](Cc2c[nH]c3ccccc23)NC(=O)[C@H](C)NC(=O)[C@H](Cc2ccccc2)NC(=O)CNC(=O)[C@H](CCCCN)NC(=O)[C@H](Cc2ccccc2)NC(=O)[C@H](Cc2ccccc2)NC(=O)[C@H](CCCCN)NC(=O)OCC2c3ccccc3-c3ccccc32)C(C)C)CSSC[C@@H](C(=O)N[C@@H](Cc2c[nH]cn2)C(=O)N[C@@H](CCCNC(=N)N)C(=O)N[C@@H](CCCNC(=N)N)C(=O)N[C@@H](C)C(=O)N[C@@H](CC(N)=O)C(N)=O)NC(=O)[C@H](C(C)C)NC(=O)[C@H](CCCNC(=N)N)NC1=O |  | ICR mouse | ip, 10 mg/kg | direction not given | body posture score | 0
